Assay results from different studies.
A part holds a random share of what one study measured.

Sample 1
Target: RNA binding protein fox-1 homolog 2, RRM domain, GST-SBP tag (RBFOX2, Homo sapiens, UniProt O43251-10, residues 100-194)
Technique: RNA Bind-n-Seq
Form: RNA
Sample: in vitro
Tested at: 365 nM
Setting: natural RNA segment, single round, ends assumed
Baseline: no-protein control
Direction: higher = stronger binding
Construct (chain): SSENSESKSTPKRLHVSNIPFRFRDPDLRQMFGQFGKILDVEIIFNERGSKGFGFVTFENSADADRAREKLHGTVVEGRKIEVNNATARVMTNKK
Sequence	RBNS enrichment (R)
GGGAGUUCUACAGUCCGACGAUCUAGAACCUCUGGUCUUCCUUUCUCUGUCCCGAGUACUGAAAUUGCAGCAGACACCUUCAUGCCUUGCCCAGGCUUCUAGUCUUUUCCUCCUUCUGGUAAUGACUACUUCUUGGAAUUCUCGGGUGCCAA	0.902
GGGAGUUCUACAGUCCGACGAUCGGCCGUCCAUCCUCGCAUUGCUGUUGAAUGGUGAGCACGUGACCAUGCCGACCACAAAGGUGUCUGCGGAAACUCGAGGACAUUCACCACGAUGAUUUUCCUCUCUUUGAUGGAAUUCUCGGGUGCCAA	0.479
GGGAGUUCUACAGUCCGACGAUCCUUACCUGUGUUAGGCCAUGUUAUUUUAUAGCGAAGUCAUGUUCGAUAGGGAUGGUAUGAAAUGCUGCUGGUGGGCUGGUAAAUCCAAAGGGAUAAGGCUUCAGUGCUGUUGGAAUUCUCGGGUGCCAA	0.773
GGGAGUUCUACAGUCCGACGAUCGAGGUAUCACUCAGGGUGCCAAGUACACACUCAUCCUCCAGGCAACAGAGAGGAUGGGGCUCCCCGAGUAGUGGGAGUUCUUUUGUGGCCUGUGCUGGGGGUAGGGAGCCUGGAAUUCUCGGGUGCCAA	0.363
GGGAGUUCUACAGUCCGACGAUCCAUCUCACCGCUUCUUGUUUGACACCUUCACAAGUCAGCAUUAAUCUUUCUUUUAAAACUUGUUUCAUUUAUGAUCAUGUAGAGAGCCACUAGGAGGCCUGCAGUUAUUUUGGAAUUCUCGGGUGCCAA	0.514
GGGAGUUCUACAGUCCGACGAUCUCCUAUAUACCUUCUGUAAAUAACUUUUUUUGAGAAGGAAAUAAAAUCAGCUGGAACUGAACCCUAAUCUUGACUUUUGUCAUCCUUAUUCCUGGGAUCUCUCCUUUCACUGGAAUUCUCGGGUGCCAA	0.311
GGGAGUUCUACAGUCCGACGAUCUAAACUAUUUUUGACAUGUUCAUAUUUUUAUAACUUAAGAAAUAAAAUAAAAGCUGCAUUUUCACAAGUUUUCUCAAGUCUUUCUUAAGGUUUUUUUGGUUUUGUAUUUAUGGAAUUCUCGGGUGCCAA	1.61
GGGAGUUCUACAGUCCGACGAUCGUGAGGCACGUGCUUUGAAGCAGAUGCCUUCAGCCCUCCCUGCUGGGAGGUGGUCUCUCAAGCUCUGGGUGCUUUUAGUACUUUUUUUUUUUUUUAACUGUAGGGAAGCAUGGAAUUCUCGGGUGCCAA	1.84
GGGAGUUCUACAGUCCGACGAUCAUGCGCAGAUGUGAGGGACACGCUCACCUUAGCCUUAAGGGGGUAGGAGUGAUGUUUUGGGGGAGGCUUUGAGAGCAAAAACGAGGAAGAGGGCUGAGCUGAGCUUUCGGUGGAAUUCUCGGGUGCCAA	0.882
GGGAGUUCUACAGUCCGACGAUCUUGAAAGUGAAGAUGAUGCCCUAAUUCCUGGUAAGGAUUUGGGGCAUAGUUUUUUGUUUUUUUGAGACGGAGUUUCGCUCUUGUUGCCCAAGCUGGAGUGCAGUGGCGCGUGGAAUUCUCGGGUGCCAA	0.265
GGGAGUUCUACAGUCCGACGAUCCAGACUGAAGGGCUGUGAGCAGGUGUAAGGGCUCCCACAUCCGUGAGCCUGUGUCCGCAGCUGCUGCCACUCUGGGCUGCUCCAGCCUGCAACUUAGUGGAAGGAAUUACUGGAAUUCUCGGGUGCCAA	0.417
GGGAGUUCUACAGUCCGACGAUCGCUCAGAUGCUGCAGUGCAGGGGCUUCAGCAUUCUUGAGUUCCUCCGUGUUAAUAAAAACAUCCUGUACAGUUGGGGACUAUGUUGUUAAUUUUGUCCCCUUAACAGCAGUGGAAUUCUCGGGUGCCAA	0.705

Sample 2
Target: Sal-like protein 4, full length isoform A (SALL4, Homo sapiens, UniProt Q9UJQ4, residues 1-1053)
Chain of UniProt Q9UJQ4 (whole entry, looked up): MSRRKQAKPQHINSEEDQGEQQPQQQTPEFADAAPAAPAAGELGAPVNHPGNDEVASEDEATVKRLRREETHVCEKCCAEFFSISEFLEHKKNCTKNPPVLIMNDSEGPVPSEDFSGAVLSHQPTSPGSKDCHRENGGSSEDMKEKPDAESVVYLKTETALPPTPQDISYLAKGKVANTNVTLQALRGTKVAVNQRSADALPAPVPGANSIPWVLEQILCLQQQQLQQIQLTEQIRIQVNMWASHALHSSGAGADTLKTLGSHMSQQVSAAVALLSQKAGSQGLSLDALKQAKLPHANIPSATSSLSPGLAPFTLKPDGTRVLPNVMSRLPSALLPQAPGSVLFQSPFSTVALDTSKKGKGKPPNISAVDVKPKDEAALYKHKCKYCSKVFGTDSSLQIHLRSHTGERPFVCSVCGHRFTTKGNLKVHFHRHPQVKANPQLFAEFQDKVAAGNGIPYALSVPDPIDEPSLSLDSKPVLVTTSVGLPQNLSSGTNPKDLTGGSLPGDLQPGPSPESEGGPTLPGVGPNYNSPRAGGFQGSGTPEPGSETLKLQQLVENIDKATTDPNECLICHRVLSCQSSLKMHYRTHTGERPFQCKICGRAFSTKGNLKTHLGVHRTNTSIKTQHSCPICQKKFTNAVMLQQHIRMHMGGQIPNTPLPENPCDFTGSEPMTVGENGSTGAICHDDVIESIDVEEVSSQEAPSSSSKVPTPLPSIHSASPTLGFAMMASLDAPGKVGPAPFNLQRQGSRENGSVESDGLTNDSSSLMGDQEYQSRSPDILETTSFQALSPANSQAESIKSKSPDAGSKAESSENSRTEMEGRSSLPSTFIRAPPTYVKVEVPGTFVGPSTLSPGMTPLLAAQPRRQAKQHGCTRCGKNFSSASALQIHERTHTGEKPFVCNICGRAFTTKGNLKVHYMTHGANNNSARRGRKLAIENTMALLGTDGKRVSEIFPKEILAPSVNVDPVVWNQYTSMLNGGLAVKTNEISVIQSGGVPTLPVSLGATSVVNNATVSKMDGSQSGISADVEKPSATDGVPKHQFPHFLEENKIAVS
Technique: universal PBM
Form: double-stranded DNA, one strand shown
Sample: in vitro
Tested at: 600 nM
Setting: 8-mer, flanks averaged, mean of replicates
Direction: higher = stronger binding
Sequence	E-score
CAGTTGTC	0.00369
TGTACACA	0.28
CAAGCCCG	-0.4
AACTGCTG	-0.134
GGCACACC	-0.339
CCCTTACA	0.0687
TGTTGAAA	0.212
ATCCTTCG	-0.0841
CTGTCGTA	0.0686
GCCGTAAC	0.00177
GAAATCAA	0.166
ATCACGGG	-0.124
CACTACCG	-0.123
GCGTGGAA	-0.156
AGCCGGCT	-0.328
AAACGATG	0.165

Sample 3
Target: RING finger protein unkempt homolog, zinc fingers 1-6, GST-SBP tag (UNK, Homo sapiens, UniProt Q9C0B0, residues 30-357)
Technique: RNA Bind-n-Seq
Form: RNA
Sample: in vitro
Tested at: not given
Setting: RNA with constant flanks, human and mouse sites, ends assumed
Baseline: input RNA pool
Direction: higher = stronger binding
Construct (chain): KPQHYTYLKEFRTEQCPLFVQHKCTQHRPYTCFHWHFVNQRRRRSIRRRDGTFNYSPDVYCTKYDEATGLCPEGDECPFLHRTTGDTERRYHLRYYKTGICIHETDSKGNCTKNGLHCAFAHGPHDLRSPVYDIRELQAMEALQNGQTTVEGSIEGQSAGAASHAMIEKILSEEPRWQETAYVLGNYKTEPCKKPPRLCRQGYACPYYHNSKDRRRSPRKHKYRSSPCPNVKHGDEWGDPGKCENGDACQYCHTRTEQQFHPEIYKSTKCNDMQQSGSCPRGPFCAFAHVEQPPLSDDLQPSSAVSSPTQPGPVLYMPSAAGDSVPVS
Sequence	bound/input enrichment
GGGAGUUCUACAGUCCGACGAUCCCGAUGAACAGGAAAUCAAUGCCUGAGGCUGACUUCAGCUCCUGGACACCCUUAGAAUUCCUAGUUGAAACUUUCCAUGACUGGAUCACAGGGAAAAACCGACCGAGCUCAGGAAGCCUACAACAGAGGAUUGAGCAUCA	0.208 ratio
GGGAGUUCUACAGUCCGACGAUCACCAACAAAGACAAGGCCGAACUAAUCCUGCCCAAUGGUCAAGAAGUAGACAUCCCGAUUUCCUACUUAACCUCAGUCUCAUCUUUGAUUGUGUGGCAUCCGGCCAACCCCGCUGAGAAACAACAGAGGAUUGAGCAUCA	0.175 ratio
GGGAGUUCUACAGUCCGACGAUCCAUCUCGCCCACGUGGUGUUAAGCGUCGCUGGAGACUUAGUCGCAUUGUCUUCCGCCACUUAGCUGACCACGGGCUACUUUCUGGAGUCCAGCGAGCGAUAUGGUAAAACCAUUUCAGAACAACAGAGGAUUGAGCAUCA	0.088 ratio
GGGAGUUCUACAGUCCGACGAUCCUCACAAACAGCCAUUUGGAAAAAAAGAAGUGUGAUGAGUAUAUUCCAGGUACAACCUCCUUAGGCAUGUCUGUUUUUAACCUAAGCAACGCCAUUAUGGGCAGUGGGAUUUUGGGACUCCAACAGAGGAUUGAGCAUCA	0.444 ratio
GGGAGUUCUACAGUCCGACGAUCGCCUGCCGACCUUUGACCAUAACGGAAUUAUAUCACGCAGUAUGGACCAAAAACAUGUCGUUAACUUUGGAAGAUUUUCAACGCAAGUUAGAUAUCCUCUCCAAACUUCUUGUUGAUGGACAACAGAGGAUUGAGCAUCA	0.159 ratio
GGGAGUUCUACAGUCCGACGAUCGUAUUAAGUUCUUCUCCUGCUGAUAAAUUGGAUUCUCGAUUUAGGAAGGGAAAUUUUGGCACUAGAGAUGCUGAAACAGAUGGACCUGAGAAAGGAGAUCAAAAAGGCAAGGCUUCUCCACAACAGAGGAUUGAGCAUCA	0.272 ratio
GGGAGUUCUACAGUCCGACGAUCCUUUUAUGCGACCAUUGUUGCAGUGGUCGGGCUUCAUGUGGUGCUGGCAAUUUUCGUCUUCAUAGUGUGGAAGGAGGGCUUGCCCCAGUGGCGGGAAAACAAAAACGAAUAGAGCAGCUUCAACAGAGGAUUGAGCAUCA	0.48 ratio
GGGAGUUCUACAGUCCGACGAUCAGCAAGGUGGUACAGAAGUUGGUCCUGCCCUUUGGGCGACUGAACUACCUGCCCCUGGAACAGCAGUUUAUGCCCUGCCUUGAGAGGAUCCUGGCUCGGGAAGCAGGGGUGGCACCCCUGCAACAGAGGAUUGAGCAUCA	0.153 ratio
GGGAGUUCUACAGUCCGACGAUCCCGCAGAAUGUUGGCCAAGUGUCUAACCCUGACCUCGCAUCUAAUUUUGCCCCUGGGAAUAAUUCAAAUUUUACCUCUCCGUUAGAAACGAAUCAUUCGUUUAUUCCACCCCCAAACGCGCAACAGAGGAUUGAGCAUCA	0.628 ratio
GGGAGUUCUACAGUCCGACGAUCUCUUAUGAGAACAUGCGUUUUCUGAUAACUCACAACCCCACCAAUGCGACUCUCAACAAGUUCACAGAGGAACUUAAGAAGUACGGAGUGACAACUUUGGUUCGAGUUUGUGAUGCUACACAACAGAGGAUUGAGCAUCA	0.103 ratio
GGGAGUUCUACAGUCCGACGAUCUCUCGGGGUUUCAAAACGUUGAAAUCAAGGACACGACGUUUGCAGUCUACCUCUGAAAGAUUAGUAGAAGCACAGAAUAUAGCACCAUCAUUUGUGAAGGGGUUUCUUUUGCGGGACAGACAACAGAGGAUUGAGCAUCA	0.264 ratio

Sample 4
Target: Histone acetyltransferase KAT6A, winged helix 2, GST fusion (KAT6A, Homo sapiens, UniProt Q92794, residues 85-181)
Technique: protein binding microarray
Form: double-stranded DNA, one strand shown
Sample: in vitro
Tested at: not given
Setting: 8-mer, flanks averaged, mean of 2 arrays, mostly near background
Baseline: not given
Direction: higher = stronger binding
Residues (chain): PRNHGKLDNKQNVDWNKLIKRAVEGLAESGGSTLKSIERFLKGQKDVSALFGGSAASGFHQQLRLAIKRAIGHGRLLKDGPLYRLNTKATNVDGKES
Sequence	E-score
CGGTAGAC	-0.0363
AAAGGCAT	0.194
GCACAATA	-0.079
CCCCATGC	-0.0487
GCTGCCGA	0.197
CACAGTCC	-0.224
GTAATAGA	-0.14
CCGCTGCA	0.0926
AAAGTACG	-0.00568
CCTCTCGA	-0.0876
ACACAGAG	-0.00819
GACAAGCC	0.0423
AACCCGGG	0.146
CGTAAGCA	-0.0566
AGACGGAT	-0.0103
GCGACGGA	0.0324

Excerpt of the above (sample 2):
Sequence	E-score
CCCTTACA	0.0687
CAAGCCCG	-0.4
TGTTGAAA	0.212
CTGTCGTA	0.0686
CACTACCG	-0.123
